Values quoted from earlier work that unrelated publications cite.
Protocols differ between the studies behind these lines.
UniProt P08684, sequence (whole entry, unmodified, looked up): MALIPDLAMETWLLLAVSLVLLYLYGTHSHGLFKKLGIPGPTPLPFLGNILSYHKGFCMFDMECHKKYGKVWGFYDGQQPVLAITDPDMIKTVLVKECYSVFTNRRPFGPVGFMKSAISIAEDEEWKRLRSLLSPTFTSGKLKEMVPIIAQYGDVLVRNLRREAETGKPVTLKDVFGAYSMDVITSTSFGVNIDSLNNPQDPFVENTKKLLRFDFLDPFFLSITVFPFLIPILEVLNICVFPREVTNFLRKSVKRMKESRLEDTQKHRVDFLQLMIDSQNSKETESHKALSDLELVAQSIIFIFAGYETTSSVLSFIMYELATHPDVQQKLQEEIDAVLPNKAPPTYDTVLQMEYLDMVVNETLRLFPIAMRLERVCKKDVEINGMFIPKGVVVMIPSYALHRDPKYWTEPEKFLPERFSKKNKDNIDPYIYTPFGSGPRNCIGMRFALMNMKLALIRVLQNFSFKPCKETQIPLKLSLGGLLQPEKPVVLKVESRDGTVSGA
UniProt P05177, sequence (whole entry, looked up): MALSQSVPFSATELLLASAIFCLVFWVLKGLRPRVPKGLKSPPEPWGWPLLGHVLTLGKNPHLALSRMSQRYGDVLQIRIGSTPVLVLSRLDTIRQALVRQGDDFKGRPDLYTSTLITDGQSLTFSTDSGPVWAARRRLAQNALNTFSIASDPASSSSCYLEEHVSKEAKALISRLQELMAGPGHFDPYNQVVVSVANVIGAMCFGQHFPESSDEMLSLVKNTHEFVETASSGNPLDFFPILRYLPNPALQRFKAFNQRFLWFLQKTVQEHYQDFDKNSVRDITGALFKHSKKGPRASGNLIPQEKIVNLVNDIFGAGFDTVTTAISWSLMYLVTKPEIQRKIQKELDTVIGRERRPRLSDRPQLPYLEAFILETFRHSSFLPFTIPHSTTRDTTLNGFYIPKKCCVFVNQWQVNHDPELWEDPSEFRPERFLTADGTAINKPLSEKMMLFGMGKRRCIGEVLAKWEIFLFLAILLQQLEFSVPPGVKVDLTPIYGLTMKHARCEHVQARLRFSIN
UniProt P33261, sequence (whole entry, looked up): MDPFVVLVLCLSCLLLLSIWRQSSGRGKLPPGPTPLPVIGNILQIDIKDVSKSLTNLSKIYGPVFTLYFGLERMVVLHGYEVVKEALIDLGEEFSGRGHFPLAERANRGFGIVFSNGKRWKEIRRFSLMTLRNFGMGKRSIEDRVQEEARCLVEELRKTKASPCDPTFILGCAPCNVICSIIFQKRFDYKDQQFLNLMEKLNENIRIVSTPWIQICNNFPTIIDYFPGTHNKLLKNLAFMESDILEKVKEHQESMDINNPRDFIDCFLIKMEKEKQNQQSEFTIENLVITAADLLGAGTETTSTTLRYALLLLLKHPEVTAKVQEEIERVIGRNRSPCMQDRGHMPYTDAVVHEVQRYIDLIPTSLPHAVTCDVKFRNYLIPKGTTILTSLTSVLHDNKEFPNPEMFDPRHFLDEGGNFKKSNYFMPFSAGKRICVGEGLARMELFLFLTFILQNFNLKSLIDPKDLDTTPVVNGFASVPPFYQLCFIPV
UniProt Q9UNQ0, sequence (whole entry, looked up): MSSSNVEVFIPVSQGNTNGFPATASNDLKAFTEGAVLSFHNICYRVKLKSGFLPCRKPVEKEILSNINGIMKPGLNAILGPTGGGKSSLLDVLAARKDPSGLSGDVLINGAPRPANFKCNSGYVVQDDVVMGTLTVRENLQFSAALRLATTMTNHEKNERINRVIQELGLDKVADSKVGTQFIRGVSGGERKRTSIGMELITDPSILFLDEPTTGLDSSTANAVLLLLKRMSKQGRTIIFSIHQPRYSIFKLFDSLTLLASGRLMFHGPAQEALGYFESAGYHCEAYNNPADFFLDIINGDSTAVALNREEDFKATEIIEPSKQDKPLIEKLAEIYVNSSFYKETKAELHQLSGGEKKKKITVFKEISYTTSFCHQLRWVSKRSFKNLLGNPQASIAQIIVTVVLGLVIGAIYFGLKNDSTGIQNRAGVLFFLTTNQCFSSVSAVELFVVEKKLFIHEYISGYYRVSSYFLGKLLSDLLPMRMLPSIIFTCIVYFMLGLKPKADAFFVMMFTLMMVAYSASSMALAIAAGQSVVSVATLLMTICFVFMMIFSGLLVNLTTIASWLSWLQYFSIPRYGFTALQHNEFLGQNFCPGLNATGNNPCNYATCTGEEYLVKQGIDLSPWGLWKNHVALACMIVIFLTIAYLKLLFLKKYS

`O=C(O)c1ccnc(N2CC(O)(c3ccc(OCc4c(-c5c(Cl)cccc5Cl)noc4C4CC4)cc3Cl)C2)c1` has an IC50 of 2.4 µM (CYP2C8; inhibitor).
For `C[C@@H](c1nc(-c2ccc(C#N)cc2)cs1)[C@](O)(Cn1cncn1)c1cc(F)ccc1F`, the IC50 was over 100 µM (CYP2A6; enzyme activity, inhibitor; together with: coumarin 7-hydroxylation).
`C[C@]12CC[C@@H]3c4cc(C56CC7CC(CC(C7)C5)C6)c(O)cc4CC[C@H]3[C@@H]1CCC2=O` gave an EC50 of 365 nM (HT-22; cell protection; together with: glutamate 20 mM).
`Nc1nc2c(nc(Sc3ccc(Cl)cc3)n2C2O[C@@H]3COP(=O)(O)O[C@H]3[C@H]2O)c(=O)[nH]1` (stereo in doubt) — result for “Km or Ki”: 8.62 µM (PDE1B; cyclic nucleotide hydrolysis, substrate or inhibitor, isothermal titration calorimetry).
For `O=c1[nH]ncn1-c1ccc(N2CCN(c3ccc(OCC4COC(Cn5cncn5)(c5ccc(Cl)cc5Cl)O4)cc3)CC2)cc1` (stereo not shown), the Ki was 0.38 nM (Cytochrome P450 3A4 (CYP3A4, Homo sapiens, UniProt P08684); competitive inhibitor; unbound).
`Nc1nc2c(ncn2[C@@H]2O[C@@H]3COP(=O)(O)O[C@H]3[C@H]2O)c(=O)[nH]1` — result for “Km or Ki”: 8.23 µM (PDE1A; cyclic nucleotide hydrolysis, substrate or inhibitor, isothermal titration calorimetry).
`CNC(=O)c1c(C)oc2cc(Oc3ncnc4cc(OC)c(OC)cc34)ccc12` — result for “CYP contribution to metabolism”: about 30% (cytochrome P450).
`C[C@@H](O)CCCCn1c(=O)c2c(ncn2C)n(C)c1=O` has a Vmax of 0.003 nmol/min/mg (low Km non-CYP enzyme; substrate, refers to: pentoxifylline formation; human liver microsomes; biphasic kinetics).
`CC(=O)Nc1cccc(-n2c(=O)n(C3CC3)c(=O)c3c(Nc4ccc(I)cc4F)n(C)c(=O)c(C)c32)c1`: “log2 fold change” 2.37 (hiPSC-derived cardiomyocytes; contractility; concentration not given, 72 h, at effective concentration; relative to: baseline).
For `O=C(Nc1nc2cccc(-c3ccc(CN4CCS(=O)(=O)CC4)cc3)n2n1)C1CC1`, the IC50 was 98 µM (OATP1B1; inhibitor).
For `Cn1c(=O)c2c(ncn2C)n(C)c1=O`, the fraction eliminated was 80 to 90% (Cytochrome P450 1A2 (CYP1A2, Homo sapiens, UniProt P05177); demethylation to paraxanthine, substrate).
For `O=C1/C(=C/c2ccccc2)Oc2ccccc21`, the EC50 was over 30000 nM (ABCG2 (Homo sapiens, UniProt Q9UNQ0); pheophorbide A accumulation, inhibitor; MDA-MB-231/R; together with: pheophorbide A).
`O=C(O)C(Cl)Cl` — result for inhibition: “inhibited” (glutathione S-transferase zeta; own metabolism to glyoxylate, inhibitor; concentration not given).
`CO/N=C(\C(=O)N[C@@H]1C(=O)N2C(C(=O)O)=C(CSc3nc(C)c(CC(=O)O)s3)CS[C@H]12)c1csc(N)n1` — result for “brain ISF-to-plasma unbound ratio”: at most 25 fold (MRPs and organic anion transporters; rat; together with: benzylpenicillin intravenous; decrease).
`CC(=O)C[C@@H](c1ccccc1)c1c(O)c2ccccc2oc1=O` gave a Cmax ratio of 1 (CYP2C9; substrate; healthy subjects, fed; oral, 10 mg, together with: simeprevir 150 mg; relative to: with over without simeprevir).
`O=C1CC(c2ccccc2)Oc2ccccc21` (stereo not shown) has a turnover number of 0.25 (CYP2A6 wild type; substrate, refers to: 6-hydroxyflavanone formation).
`CN(CC(=O)O)C(=O)CN` gave a permeability reduction of 10 fold (PepT1; mouse, small intestine; dose not given; relative to: PepT1 knockout over wild type).
With `C[C@@]12CC=C3c4ccc(O)cc4CC[C@@H]3[C@H]1CC[C@H]2O` the EC50 was 296 nM (HT-22; cell protection; together with: iodoacetic acid 20 µM).
With `COc1ccc2[nH]c([S+]([O-])Cc3ncc(C)c(OC)c3C)nc2c1` (stereo not shown) the fraction metabolized was 0.93 (CYP2C19 (Homo sapiens, UniProt P33261); human; together with: CYP2C19 poor vs extensive metabolizers).
`COc1cc2c(cc1OC)CN(CCc1ccc(NC(=O)c3cc(OC)c(OC)cc3NC(=O)c3cnc4ccccc4c3)cc1)CC2` has an EC50 of 33 nM (P-glycoprotein; rhodamine efflux, inhibitor; CD56-positive lymphocytes; together with: rhodamine 123).
The Km of `C=CCN1CC[C@]23c4c5ccc(O)c4O[C@H]2C(=O)CC[C@@]3(O)[C@H]1C5` is reported as 40 to 60 µM (UGT2B7 (human); glucuronidation, substrate).
Under “metabolism rate increase”, `NC(=O)N1c2ccccc2C=Cc2ccccc21` is recorded as 2 to 6 fold (Cytochrome P450 3A4 (CYP3A4, Homo sapiens, UniProt P08684, S18F); human liver microsomes and hepatocytes; 5 µM, together with: 100 µM pregnenolone sulfate; relative to: without pregnenolone sulfate).

For quick reference, copied from above:
`O=C1CC(c2ccccc2)Oc2ccccc21` (stereo not shown) has a turnover number of 0.25 (CYP2A6 wild type; substrate, refers to: 6-hydroxyflavanone formation).
